Measurements from different studies.
Each numbered part is a random draw from the data of one study; scales do not carry over between parts. Positions count from the first letter of the parent shown.

Sample 1
Target: Interferon regulatory factor 7, full length, phosphomimetic (IRF7, Homo sapiens, UniProt Q92985, residues 1-503, S101K/S471D/S472D/S475D/S476D/S477D/S483D/S484D/S487D)
Method: protein-binding microarray
Molecule type: double-stranded DNA, one strand shown
Sample: in vitro
Tested at: 250 nM
Notes: 60-bp whole probe
Together with: salmon DNA 0.4 mg/ml
Baseline: random background probes
Reading: higher = stronger binding
Constant ends, left off below: GCCTAGCAC … GTCTTGATTCGCTTGACGCTGCTG
Construct (chain): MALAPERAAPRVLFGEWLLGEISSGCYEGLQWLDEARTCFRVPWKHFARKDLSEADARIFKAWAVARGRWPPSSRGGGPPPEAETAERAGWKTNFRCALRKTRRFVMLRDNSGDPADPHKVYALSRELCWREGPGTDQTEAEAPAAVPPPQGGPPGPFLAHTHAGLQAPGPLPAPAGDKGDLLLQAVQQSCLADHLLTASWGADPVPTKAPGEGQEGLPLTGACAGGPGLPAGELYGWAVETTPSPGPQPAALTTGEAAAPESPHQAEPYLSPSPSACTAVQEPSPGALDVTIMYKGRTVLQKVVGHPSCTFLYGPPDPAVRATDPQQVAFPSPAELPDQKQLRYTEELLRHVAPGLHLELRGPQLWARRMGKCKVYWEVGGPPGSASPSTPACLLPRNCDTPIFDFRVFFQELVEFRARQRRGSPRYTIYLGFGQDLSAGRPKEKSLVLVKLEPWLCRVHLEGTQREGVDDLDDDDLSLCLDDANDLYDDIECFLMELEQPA
| Strand | log fluorescence [z-score] |
| --- | --- |
| ACCACTTTTATTTTCAGTATGTGCTAG | 0.841 |
| TCATTTTGGTTTTCTCTAACTGTGCTA | 1.88 |
| TCAATATCCATTATAGAACTGTGCTAG | 0.608 |
| GACGAACTGGGGACTGAAGACGTGCTA | -0.597 |
| TTAGGACTGGGTCTCGGTTTGTGCTAG | 4.11 |
| GACGGTTTCCTTATGCTGACGTGCTAG | 2.8 |
| TTAGGACTGCTATTCCTTTAGTGCTAG | 0.0106 |
| TTAGGTATCATTTTCCTTTAGTGCTAG | 1.78 |

Sample 2
Target: UBE2D3 UBC core domain (UniProt P61077)
Method: yeast two-hybrid
Sample: yeast
Notes: mostly zero background
Baseline: not given
Reading: higher = stronger interaction
B1: PRKN RING domain (UniProt O60260); chain LIATNSRNITCITCTDVRSPVLVFQCNSRHVICLDCFHLYCVTRLNDRQFVHDPQLGYSLPCVAGCPNSLIKELHH
B2: TRIM22 RING domain (UniProt Q8IYM9); chain KEVKMSPQEGQKRDVCEHHGKKLQIFCKEDGKVICWVCELSQEHQGHQTFRINEVVKECQEK
Construct (chain): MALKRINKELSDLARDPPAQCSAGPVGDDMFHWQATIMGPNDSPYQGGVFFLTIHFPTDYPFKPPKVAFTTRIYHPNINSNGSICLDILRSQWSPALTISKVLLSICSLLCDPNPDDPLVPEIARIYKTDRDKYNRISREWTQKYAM
| Sequence | lacZ reporter activity |
| --- | --- |
| NTAPSLTVPECAICLQTCVHPVSLPCKHVFCYLCVKGASWLGKRCALCRQEIPEDFLDK (RNF146 RING domain (UniProt Q9NTX7)) | 0 |
| B1 (PRKN RING domain) | 0 |
| B2 (TRIM22 RING domain) | 0 |

Sample 3
Target: Phosphate system positive regulatory protein PHO4, full length, GST-tagged (PHO4, Saccharomyces cerevisiae, UniProt P07270, residues 1-312)
Method: competition protein-binding microarray
Molecule type: double-stranded DNA, one strand shown
Sample: in vitro
Tested at: 2 µM
Notes: whole 60-bp probe, lowest competitor level
Together with: Cbf1 competitor, 0.05 µM
Reading: higher = stronger binding
Constant ends, left off below: … GTCTTGATTCGCTTGACGCTGCTG
Construct (chain): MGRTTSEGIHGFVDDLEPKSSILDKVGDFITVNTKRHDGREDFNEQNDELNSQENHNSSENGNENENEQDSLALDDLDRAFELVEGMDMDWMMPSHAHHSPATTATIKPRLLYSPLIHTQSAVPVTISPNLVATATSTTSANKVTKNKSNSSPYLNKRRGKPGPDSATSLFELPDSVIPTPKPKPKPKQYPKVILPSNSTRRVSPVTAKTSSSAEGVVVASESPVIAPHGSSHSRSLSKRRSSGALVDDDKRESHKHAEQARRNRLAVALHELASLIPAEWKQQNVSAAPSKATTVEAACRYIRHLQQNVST
| Strand | fluorescence intensity |
| --- | --- |
| CAGCGTTATCGCCGTCACGGCGATCTTGAAGTGTAG | 4190 a.u. |
| GCAGACGACTAAAGCCATGGTCAAGCCTGGTAATCC | 2690 a.u. |
| CTTTCCCGATCTTTTCACGTGACGTTAGCACATTTG | 14300 a.u. |
| AAGAACCCGATATCGCACGCTTCTCCAGGGGTCGGT | 8440 a.u. |
| CGATTGGAAACCCGTCACGTGGAAGTGAGTCTATTA | 13700 a.u. |
| CCAAGGAAATCCCGTCACAATACGCTCCTCAGTTGA | 3300 a.u. |
| AACAATAACTGCCAAAACGTGGTGAACGGACGCTGA | 14200 a.u. |
| TACAGCTGCCATTTGACCGTGCAATACAGCAAATTA | 5070 a.u. |

Other studies, line by line
Parent: viral docking peptide; TSVRRALFTGGSD
| Substitution | target | assay | test system | conditions | how to read | quantity | value |
| --- | --- | --- | --- | --- | --- | --- | --- |
| R5S | CCNB2, cyclin fold, Cln2 fusion (human) | yeast growth competition, sequencing | yeast | strong parent motif | baseline: not given, higher = stronger binding | normalised enrichment score | 0.164 |
